Experimental data collected from several papers.
Each line is one published result; not all experiments were run side by side. Values joined by “and” are separate records of one study, mostly repeats; a detail may differ. Numbers after ± are the reported error.
UniProt Q12851, sequence (whole entry, looked up): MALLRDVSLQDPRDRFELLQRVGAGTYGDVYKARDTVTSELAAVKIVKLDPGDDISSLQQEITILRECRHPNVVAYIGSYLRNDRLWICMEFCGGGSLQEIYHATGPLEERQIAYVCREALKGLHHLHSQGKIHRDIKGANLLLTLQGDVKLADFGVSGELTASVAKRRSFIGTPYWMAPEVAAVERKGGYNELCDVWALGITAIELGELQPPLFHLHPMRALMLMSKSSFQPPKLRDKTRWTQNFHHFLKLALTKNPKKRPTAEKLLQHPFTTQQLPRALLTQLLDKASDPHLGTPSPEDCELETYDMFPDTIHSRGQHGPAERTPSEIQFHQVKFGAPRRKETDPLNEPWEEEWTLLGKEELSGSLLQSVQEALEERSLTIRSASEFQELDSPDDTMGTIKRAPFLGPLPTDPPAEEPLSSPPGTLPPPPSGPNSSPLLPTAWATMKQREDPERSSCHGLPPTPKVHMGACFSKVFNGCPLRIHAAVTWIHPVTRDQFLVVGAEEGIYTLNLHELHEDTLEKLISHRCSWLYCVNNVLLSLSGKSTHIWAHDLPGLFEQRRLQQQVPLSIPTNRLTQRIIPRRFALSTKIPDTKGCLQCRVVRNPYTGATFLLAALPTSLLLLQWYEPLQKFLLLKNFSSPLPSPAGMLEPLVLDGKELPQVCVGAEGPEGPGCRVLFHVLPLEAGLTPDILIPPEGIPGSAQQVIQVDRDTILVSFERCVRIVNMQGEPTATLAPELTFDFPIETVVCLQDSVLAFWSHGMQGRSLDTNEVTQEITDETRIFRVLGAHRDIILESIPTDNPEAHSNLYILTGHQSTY

SMILES | target or system | test | test system | setting | scale | quantity | value
CCN(CC)CC#CCNc1ccnc2cc(Cl)ccc12 | Salmonella typhimurium | mini-Ames test | TA1535 | 62.5 µg/well, with rat liver S9 | – | revertants per well | 3
C=CC(=O)Nc1cccc(Cn2ncc3cnc(Nc4cnn(CCOC)c4)nc32)c1 | CSNK1G3 human | binding, KINOMEscan | – | 100 nM | lower = stronger binding | percent of control | 100%
C=C(NC(=O)c1csc(-c2nc3c(cc2O)-c2nc(cs2)C(=O)NC(C(C)O)C(=O)NC(=C(C)OC)c2nc(cs2)C(=O)NC2c4nc(cs4)C(=O)NC(COC(=O)c4c5c6c(cccc6n4O)COC(=O)C(OC4CC(C)(O)C(N(C)C)C(C)O4)C2OC5)c2nc-3cs2)n1)C(N)=O (stereo not shown) | – | – | cynomolgus monkey, plasma | intravenous, 3 mg/kg, single dose, infusion | – | half-life | 5.25 h
CNS(=O)(=O)Nc1nccc(Cc2c(C)c3ccc(Oc4ncccc4F)cc3oc2=O)c1F | SW756 | cell viability | – | 7 days | – | IC50 | 39.8 nM
CCN(CC)CC(=O)Nc1cccc(-n2cc(-c3ccc4ccc(-c5cn(-c6cccc(NC(=O)CN(CC)CC)c6)nn5)cc4c3)nn2)c1 | RCC4 | PCR angiogenesis array, refers to: FGF1 | – | 5 x IC50, 2 h, normoxia | baseline: untreated | fold regulation | 1.03
CC(C)C[C@H](NC(=O)[C@@H](CCCCNC(=O)[C@@H](Cc1ccccc1)NC(=O)CCCCCNC(=O)CN1CCN(CC(=O)O)CCN(CC(=O)O)CCN(CC(=O)O)CC1)NC(=O)[C@H](Cc1ccc(O)cc1)NC(=O)[C@H](CO)NC(=O)[C@H](Cc1c[nH]c2ccccc12)NC(=O)[C@H](Cc1c[nH]cn1)NC(=O)[C@@H]1CCC(=O)N1)C(=O)N[C@@H](CCCNC(=N)N)C(=O)N1CCC[C@H]1C(=O)NCC(N)=O [indium-111 labelled] | – | – | athymic nude mouse, female, intestines | intravenous, 0.037 MBq, 2 h | – | tissue uptake | 6.01 ± 6.69 %ID
COc1ccccc1-c1ccncc1C(=O)Nc1nnc(OCc2ccc(Cl)cc2)s1 | PEO1 BRCA2-mutant ovarian cancer | – | – | 0.5 µM, with: olaparib 0.25 µM | – | colony survival | 9.68% and 0%
c1ccc(-c2n[nH]cc2-c2ccnc3ccccc23)nc1 | VPS15 (Candida albicans) | kinase binding, MIB/MS competition | Candida albicans lysate | 10 µM | baseline: DMSO | log2 fold change | -0.48
Nc1ncc(-c2cc(-c3cnn(CC(F)(F)F)c3)ncc2F)nc1C(=O)NC1CNCC(F)C1 (stereo not shown) | ASK1 | KINOMEscan | – | 1 µM | baseline: DMSO control | remaining binding | 100%
CN1CCCNC(=O)c2cccc(c2)C(=O)NCCCN(C)CCCNc2cccc3c2C(=O)c2cccc(c2C3=O)NCCC1 | SAS | RNA-Seq, refers to: PBLD mRNA | – | 1 µM, 6 h | baseline: untreated cells | log2 fold change | 2.35
Cc1ncsc1-c1ccc(C(C)NC(=O)C2CC(O)CN2C(=O)C(NC(=O)CCCCCCCCCCN2CCCC(Nc3ncc(Cl)c(Nc4ccccc4S(=O)(=O)C(C)C)n3)C2)C(C)(C)C)cc1 (stereo not shown) | 22Rv1 | RNA-seq, refers to: ZNF229 mRNA | – | concentration not given | baseline: DMSO | log2 fold change | -1.04
Cc1nn(-c2cccc(N)c2)c(=O)c2cnc(Nc3ccc(N4CCNCC4)cc3)nc12 | Mitogen-activated protein kinase kinase kinase kinase 2 (MAP4K2, Homo sapiens, UniProt Q12851) | enzyme activity, inhibitor | – | – | – | IC50 | 536 nM
COC1CN([C@H]2CC[C@H]([C@@]3(C)Oc4c(Cl)cc(C(=O)NCc5c(SC)cc(C)[nH]c5=O)c(C)c4O3)CC2)C1 | – | RNA-seq, refers to: WDR26 mouse homolog | mouse, HT-1376 xenograft, whole blood | dose not given | baseline: vehicle | log2 fold change | 2.03

Repeated from above:
SMILES | target or system | test | test system | setting | scale | quantity | value
CNS(=O)(=O)Nc1nccc(Cc2c(C)c3ccc(Oc4ncccc4F)cc3oc2=O)c1F | SW756 | cell viability | – | 7 days | – | IC50 | 39.8 nM
